Measured values from different studies.
Numbered parts are unrelated; each lists some results of a single study.

Set 1 — method: aptamer microarray, sandwich; form: DNA with 2'F-ANA; medium: in vitro; tested at: 200 nM; added: Cy3 exosite-II aptamer, 400 nM; direction: higher = stronger binding; oligonucleotide: GGTTGGTGTGGTTGG
Target: Prothrombin, mature alpha-thrombin (F2, Homo sapiens, UniProt P00734)
Notes: whole 15-mer aptamer, many near background
For `2'F-ANA at 1 4 5 6 7 9 10 14 15`, “mean fluorescence intensity” read 45.9 a.u.
`2'F-ANA at 1 2 3 5 7 10 13 14 15` — result for “mean fluorescence intensity”: 49.9 a.u.
For `2'F-ANA at 1 2 3 8 9 10 11 12 13 14 15`, “mean fluorescence intensity” read 57.5 a.u.
`2'F-ANA at 2 4 5 8 9 10 12 14 15` — result for “mean fluorescence intensity”: 41.8 a.u.
For `2'F-ANA at 1 2 3 5 7 9 10 12 15`, “mean fluorescence intensity” read 62.5 a.u.
Under “mean fluorescence intensity”, `2'F-ANA at 1 2 6 9 10 13` is recorded as 50.9 a.u.
For `2'F-ANA at 2 3 6 7 11 14 15`, “mean fluorescence intensity” read 314 a.u.
`2'F-ANA at 1 5 6 8 11 12 13 14 15` — result for “mean fluorescence intensity”: 55 a.u.
For `2'F-ANA at 1 4 9 10 11 13 15`, “mean fluorescence intensity” read 49.6 a.u.
Under “mean fluorescence intensity”, `2'F-ANA at 1 4 5 6 7 8 13 14 15` is recorded as 51.7 a.u.
`2'F-ANA at 3 4 6 10 11 14 15`: “mean fluorescence intensity” 163 a.u.
Under “mean fluorescence intensity”, `2'F-ANA at 1 5 7 12 14 15` is recorded as 51.9 a.u.
Under “mean fluorescence intensity”, `2'F-ANA at 2 3 8 9 10 11 12` is recorded as 399 a.u.
Under “mean fluorescence intensity”, `2'F-ANA at 1 2 5 6 7 8 9 13 14 15` is recorded as 67.4 a.u.
Under “mean fluorescence intensity”, `2'F-ANA at 2 8 13 14 15` is recorded as 140 a.u.
`2'F-ANA at 2 3 6 7 8 9 11 14`: “mean fluorescence intensity” 325 a.u.
`2'F-ANA at 1 2 5 6 7 10 11 12 15` — result for “mean fluorescence intensity”: 54 a.u.
For `2'F-ANA at 1 2 3 5 15`, “mean fluorescence intensity” read 60 a.u.
`2'F-ANA at 1 2 4 8 9 11 13 14 15`: “mean fluorescence intensity” 58 a.u.
Under “mean fluorescence intensity”, `2'F-ANA at 2 3 4 5 6 7 9 11 14 15` is recorded as 54.5 a.u.
`2'F-ANA at 1 2 4 5 7 10 11 12 13 14` — result for “mean fluorescence intensity”: 46.5 a.u.
`2'F-ANA at 1 2 3 5 9 10 13 14` — result for “mean fluorescence intensity”: 46.4 a.u.
`2'F-ANA at 4 6 7 8 9 11 15`: “mean fluorescence intensity” 202 a.u.
`2'F-ANA at 1 2 4 5 6 7 9 15` — result for “mean fluorescence intensity”: 60.9 a.u.
Under “mean fluorescence intensity”, `2'F-ANA at 1 3 5 6 7 8 9 10 11 12 14` is recorded as 47.9 a.u.

Set 2 — method: RNA Bind-n-Seq; form: RNA; medium: in vitro; tested at: not given; relative to: input RNA pool; direction: higher = stronger binding
Target: RING finger protein unkempt homolog, zinc fingers 1-6, GST-SBP tag (UNK, Homo sapiens, UniProt Q9C0B0, residues 30-357)
Chain of UniProt Q9C0B0 (30-357, looked up): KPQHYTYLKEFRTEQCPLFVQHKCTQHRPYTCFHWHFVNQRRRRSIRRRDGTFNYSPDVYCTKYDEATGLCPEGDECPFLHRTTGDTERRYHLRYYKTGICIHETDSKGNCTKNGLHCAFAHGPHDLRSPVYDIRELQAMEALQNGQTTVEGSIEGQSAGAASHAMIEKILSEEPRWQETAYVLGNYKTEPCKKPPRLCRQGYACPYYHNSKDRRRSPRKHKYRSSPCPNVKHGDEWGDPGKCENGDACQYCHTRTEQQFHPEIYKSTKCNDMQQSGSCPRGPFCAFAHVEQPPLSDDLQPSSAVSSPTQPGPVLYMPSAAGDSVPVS
Notes: RNA with constant flanks, human and mouse sites, ends assumed
With `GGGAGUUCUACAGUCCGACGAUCCUCUUAAAAGACUAUGAAGAUAAAAUUCGGGAGGAGUAUGAGCAAAUCCUCAAUACCAAACUAGCAGAACAAUAUGAAUCUUUUGUGAAAUUCACACAUGAUCAGAUUAUGCGACGGUAUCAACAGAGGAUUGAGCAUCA` the bound/input enrichment was 0.25 ratio.
`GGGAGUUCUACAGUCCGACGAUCUAAUAUGUUAGUAAGUUACAUUUUAAAUAAUGCUCAUGUGACAAUACUCCCAAUCAAUGGCUUAUAGAAUUUAAAGAUCUGUAUAUUAGAUUUUGGCUUAAAGGCAUGAGAAGUAUAAGACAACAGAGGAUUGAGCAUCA` has a bound/input enrichment of 4.24 ratio.
For `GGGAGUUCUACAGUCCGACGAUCCCAACCAGUCAAGCCCAAAUUGUGCAAGGUAUUACACCACAGACAAUCCAUGGUGUGCAAGCCAGUGGUCAAAAUAUAUCACAACAGGCUUUGCAAAAUCUUCAGUUGCAGCUGAAUCCUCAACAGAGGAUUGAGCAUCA`, the bound/input enrichment was 0.36 ratio.
With `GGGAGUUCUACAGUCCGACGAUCCGGGAGUUCAUGAUCAAAACCCGUCGUAGGAAGGGCCUGAGUGAAGAUGUGAGCAUCAGCAAGUUCUUCGACGAUCCUAUGUUGCUGGAGCUCGCCAAACAGGAUGUUGUGCUCAAUUAUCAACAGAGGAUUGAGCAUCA` the bound/input enrichment was 0.247 ratio.
`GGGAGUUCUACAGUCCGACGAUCCGAGAAGUAGGAAUCCCUCCAGAACAAUCCUUGGAAACUGCUAAGGCAGUAAAGGAGCGCUAUAGUUAUGUCUGCCCAGAUUUAGUAAAAGAAUUUAACAAGUAUGAUACAGAUGGGUCACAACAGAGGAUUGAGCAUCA` gave a bound/input enrichment of 8.72 ratio.
The bound/input enrichment of `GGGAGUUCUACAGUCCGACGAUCCAUAGGCCUGGGCUAGAGUGUCAAUGGCAGCCAGGGGUCUUCUCCAUCUCCAGAGGCCUUUAUAGAGCCGGCCAGAAUAUACAUUCCCUUCUGGCAAAAACCACUGGCACCCAGGAUCAUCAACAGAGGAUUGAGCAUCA` is reported as 0.206 ratio.
The bound/input enrichment of `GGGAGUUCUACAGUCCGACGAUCACAAGAAUGCAGAAGGCUGGAAUUCCUUGUCCAACAGUUGUACUGCUUAAGAAGCACAUUUUAGUUAUGUCUUUCAUUGGCCAUGAUCAAGUUCCAGCCCCUAAAUUAAAAGAAGUAAAGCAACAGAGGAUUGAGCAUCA` is reported as 0.355 ratio.
The bound/input enrichment of `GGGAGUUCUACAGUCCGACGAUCGAGCGAGAUGGUGCUGUCAAGGCUAUGGAAGAAAUGAAUGGCAAAGACUUGGAGGGAGAAAAUAUUGAAAUUGUUUUUGCCAAGCCACCAGAUCAGAAAAGGAAAGAAAGAAAAGCUCAGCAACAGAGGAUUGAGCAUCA` is reported as 0.384 ratio.
With `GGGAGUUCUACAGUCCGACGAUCUUUUCUGCGUCUUGGUGGCAUGCAUGUGUCUCAUCAUCCUUUCAAACUUGUGGUGGAACAGGGUUUUCUUCCCUGUCUGUGUAUUUUGAGCCAGCACAGUUACCAAAAUUGAACUUGUCUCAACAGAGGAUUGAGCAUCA` the bound/input enrichment was 0.237 ratio.
For `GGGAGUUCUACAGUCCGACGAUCAGGAUUCAGAAGGAGGACUUUUGGCACUCUUAUAUCGACUAUGAGAUCUGCAUUCACACAAAUAGCAUGUGUUUUACAAUGAAAACAUCUUGUGUACGAAGAAGGUAUAGAGAGUUCGUGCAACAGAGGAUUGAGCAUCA`, the bound/input enrichment was 0.303 ratio.
The bound/input enrichment of `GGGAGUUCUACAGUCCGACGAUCGACUGGUGCUGUACUCACAAAAAUCAUUUGGCCAUGUUAGAAGACACGUUUUGGGAAGAAGAAAUCUGGGAAUAUAAAUCUAAAAGAAAGCCCAAACCCGUACAUCCAAAUAAUUGUUCUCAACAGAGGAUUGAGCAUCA` is reported as 0.223 ratio.

Set 3 — target: UBE2G2 UBC core domain (UniProt P60604); method: yeast two-hybrid; medium: yeast; notes: mostly zero background; relative to: not given; direction: higher = stronger interaction
B1: PHF7 RING domain (UniProt Q9BWX1); chain IQHGHVGEESCILCCEDLSQQSVENIQSPCCSQAIYHRKCIQKYAHTSAKHFFKCPQCNNRKEFPQEML
B2: RNF32 RING domain (UniProt Q9H0A6); chain SLLQGDSVQPCPICKEEFELRPQVLLSCSHVFHKACLQAFEKFTNKKTCPLCRKNQYQTRVIH
B3: PEX2 RING domain (UniProt P28328); chain DNTLATSGKECALCGEWPTMPHTIGCEHIFCYFCAKSSFLFDVYFTCPKCGTEVHSLQPLK
B4: TRIM52 RING domain (UniProt Q96A61); chain PMQTLQEEAVCAICLDYFKDPVSISCGHNFCRGCVTQLWSKEDEEDQNEEEDEWEEEEDEEAV
B5: RNF112 RING domain (UniProt Q9ULX5); chain QPMAPRELPTCSICLERLRDPISLDCGHDFCIRCFSTHRLPGCEPPCCPECRKICKQKRGLR
Target sequence (chain): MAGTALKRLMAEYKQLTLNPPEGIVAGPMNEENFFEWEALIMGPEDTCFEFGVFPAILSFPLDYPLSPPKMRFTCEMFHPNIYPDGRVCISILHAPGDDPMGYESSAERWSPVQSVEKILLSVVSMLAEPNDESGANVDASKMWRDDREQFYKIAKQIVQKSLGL
`B1 (PHF7 RING domain)` — result for “lacZ reporter activity”: 0.
`B2 (RNF32 RING domain)` — result for “lacZ reporter activity”: 0.
For `B3 (PEX2 RING domain)`, “lacZ reporter activity” read 0.
`QLQDEEDDSLCRICMDAVIDCVLLECGHMVTCTKCGKRMSECPICRQYVVRAVHVF (RNF34 RING domain (UniProt Q969K3))`: “lacZ reporter activity” 0.
`B4 (TRIM52 RING domain)`: “lacZ reporter activity” 0.
Under “lacZ reporter activity”, `KIKDLNEHIVCCLCAGYFVDATTITECLHTFCKSCIVKYLQTSKYCPMCNIKIHETQPLL (PCGF1 RING domain (UniProt Q9BSM1))` is recorded as 0.
Under “lacZ reporter activity”, `B5 (RNF112 RING domain)` is recorded as 0.
For `KRQCSDVDDICSICQAEFQKPILLICQHIFCEECMTLWFNREKTCPLCRTVISDHINKW (RNFT1 RING domain (UniProt Q5M7Z0))`, “lacZ reporter activity” read 0.

Set 4 — method: RNA Bind-n-Seq; form: RNA; medium: in vitro; tested at: 365 nM; relative to: no-protein control; direction: higher = stronger binding
Target: RNA binding protein fox-1 homolog 2, RRM domain, GST-SBP tag (RBFOX2, Homo sapiens, UniProt O43251-10, residues 100-194)
Notes: natural RNA segment, single round, ends assumed
Construct (chain): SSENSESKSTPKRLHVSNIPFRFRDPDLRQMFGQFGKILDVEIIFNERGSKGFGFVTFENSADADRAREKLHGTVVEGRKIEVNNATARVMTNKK
For `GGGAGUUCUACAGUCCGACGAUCGAAAUGAGGUUGAGAUGUUUUUCAAGGCUAACUUCAUGGACUCACUCUGUUUAGUGACUUAAUUGUAUCCCACCAAUUACUGCUGGUGACUUACUCACCCUUGUACAGUGUGGAAUUCUCGGGUGCCAA`, “RBNS enrichment (R)” read 0.457.
Under “RBNS enrichment (R)”, `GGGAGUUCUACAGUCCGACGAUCGCAUUUGUUGCUCUUGGUCCAGUCCGCCUGCCUCCUUAGGAGACCGUUCCAUGACAUGCAAGGGGAAGCUCACAGAAGAAGCCCACUGUAACUCAGUGUGAAGCAAGUGUUGGAAUUCUCGGGUGCCAA` is recorded as 0.472.
`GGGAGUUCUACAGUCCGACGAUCAAAGAGAAAAAUGAAAAACUCAUAGUUUGGAGCCAGGAGGCAGGGUGUCCUACAGGGCUGCACAGCCCUGAGGGGUCAGUGCUGGGAUCUGGUUGGUUGGUUUGUCUUUUUGGAAUUCUCGGGUGCCAA`: “RBNS enrichment (R)” 0.425.
`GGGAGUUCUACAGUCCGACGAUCAUCCUUCACUGUGGCCUUUUCAAGCUCAGCUGUUCCUGUUGUAUUUGAGACGAGGGUGAGGGAAUGUGGUGGCCACAAAAGAACAGGGACUUGCAGCACAAAUGUCACUUUGGAAUUCUCGGGUGCCAA`: “RBNS enrichment (R)” 1.02.
`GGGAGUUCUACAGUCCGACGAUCCCUCCCAGCGCUCUGGGAGCCACGCCUAUGCCCUGCCCUUCCUCAGGGCCCCUGGGGAUCUUGCCCCCUUUGACCUUCCCCAAAGGAUGGUCACACACCAGCACUUUAUAUGGAAUUCUCGGGUGCCAA` — result for “RBNS enrichment (R)”: 0.241.
For `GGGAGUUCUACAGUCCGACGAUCUUCUUGGAUUUUUAGGUGUAAUUUGCCAAGGUCUUGGAAUCUUUUUCCCAAGAGCAUGAUAGAAAGAUCCCUGGACUCUGCUGUUACAAGCGUGGACUCUUGUCUCACCUUGGAAUUCUCGGGUGCCAA`, “RBNS enrichment (R)” read 3.02.
For `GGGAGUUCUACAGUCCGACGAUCUAUACAGUGAAGACAAACCAAAUACUUUUCACCAUUGAACUAUCUGUACAUUAUCUUUGGUAACACUAGACUAGUGUAGUCUUGGGGAACACACCGAGGAAACAUGUAGCUGGAAUUCUCGGGUGCCAA`, “RBNS enrichment (R)” read 0.361.
Under “RBNS enrichment (R)”, `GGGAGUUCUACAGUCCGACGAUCGCCGUUUGAACUUUGAGCAUUUAUCUAAAUUAAAUUGGCCCAGGGUUGGCUGGUGGGUCACCCAGCAGAGGCUUCUCCCCAUAGCACGAGGAUGUGUUGCCUGGGCACGGUGGAAUUCUCGGGUGCCAA` is recorded as 2.32.
`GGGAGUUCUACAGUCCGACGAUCUUUAAUGAAUUCACAUGAAAGGGGUAGUCUGAGUGACACAGUUCCCCACUCCGUACUGUAUUUUGCCAUUCUGCCGUAGCUAGAUGUUCUGUGGGGUUUGUUAACAUGGAUGGAAUUCUCGGGUGCCAA`: “RBNS enrichment (R)” 1.3.

Some of these lines once more (set 1):
`2'F-ANA at 1 2 3 5 7 10 13 14 15` — result for “mean fluorescence intensity”: 49.9 a.u.
`2'F-ANA at 1 2 3 5 9 10 13 14` — result for “mean fluorescence intensity”: 46.4 a.u.
`2'F-ANA at 1 2 5 6 7 10 11 12 15` — result for “mean fluorescence intensity”: 54 a.u.
For `2'F-ANA at 1 2 3 5 15`, “mean fluorescence intensity” read 60 a.u.
